{"data": "Measured values collected from several papers", "note": "Each numbered part is a random draw from the data of one study; scales do not carry over between parts."}
{"data": "Block 1", "target": "Histone acetyltransferase KAT6A, both winged helices, GST fusion (KAT6A, Homo sapiens, UniProt Q92794, residues 1-181)", "technique": "protein binding microarray", "form": "double-stranded DNA, one strand shown", "medium": "in vitro", "tested at": "not given", "setting": "8-mer, flanks averaged, mean of 2 arrays, mostly near background", "relative to": "not given", "direction": "higher = stronger binding", "Construct (chain)": "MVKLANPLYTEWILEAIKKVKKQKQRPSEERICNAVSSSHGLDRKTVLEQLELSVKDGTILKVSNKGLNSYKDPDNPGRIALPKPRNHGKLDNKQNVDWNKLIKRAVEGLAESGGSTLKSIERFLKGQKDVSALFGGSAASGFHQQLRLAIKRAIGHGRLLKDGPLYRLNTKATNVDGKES"}
{"Sequence": "CAAGGTCG", "E-score": -0.0265}
{"Sequence": "AAGAATCA", "E-score": -0.192}
{"Sequence": "TAAGCATA", "E-score": -0.0366}
{"Sequence": "CATTTTTC", "E-score": -0.0882}
{"Sequence": "CAGACCCC", "E-score": -0.0507}
{"Sequence": "TCCAGAGA", "E-score": -0.169}
{"Sequence": "ACGCCTTC", "E-score": -0.00286}
{"Sequence": "GCGTCTCA", "E-score": 0.183}
{"Sequence": "TGGCCCAA", "E-score": -0.164}
{"Sequence": "AAGGCTGC", "E-score": -0.135}
{"Sequence": "CGACTTTA", "E-score": 0.0263}
{"Sequence": "ACCAATGA", "E-score": -0.218}
{"Sequence": "CCCGGGGA", "E-score": 0.201}
{"Sequence": "ATTGATAG", "E-score": -0.0565}
{"Sequence": "ATTTTTGG", "E-score": -0.114}
{"Sequence": "CATGAAAC", "E-score": 0.179}
{"Sequence": "TAAGTTAA", "E-score": -0.109}
{"data": "Block 2", "target": "Fragile X messenger ribonucleoprotein 1, C-terminal low-complexity region (Fmr1, Mus musculus, UniProt P35922)", "technique": "RNA Bind-n-Seq", "form": "RNA", "medium": "in vitro", "tested at": "200 nM", "setting": "whole 134-nt RNA, ends assumed", "together with": "150 mM LiCl", "relative to": "input library", "direction": "higher = stronger binding", "each molecule": "7-deaza-guanosine replaces G", "all sequences stand within": "GGGAGUUCUACAGUCCGACGAUC … UGGAAUUCUCGGGUGUCAAGG"}
{"Sequence": "CCCAUGCAGGUGGGCAUCUUUGGGAAGUGGGGCAAGGGGGGGAUAGGGAGGGGGGUAACACUUUGGGAACAGGUGGUCCCAGGUCGUUUC", "log2 enrichment": 1.13}
{"Sequence": "CCUGUGCUACACAUCGUAUGUACCGAAUCGGGUUUUUUGGGGUUUUUUGGGUUUUUUGGGAAAGUAUUAUGUUACGCCGUUCGGAUCUGC", "log2 enrichment": -0.893}
{"Sequence": "AGUCCUGUGCUACACAUCGUAUGUACCGAAUCGGGGCCCCGGGGCCCCGGCCCCGGGGAAAGUAUUAUGUUACGCCGUUCGGAUCUGCAC", "log2 enrichment": -2.38}
{"Sequence": "CUCAAGUCCUGUGCUACACAUCGUAUGUACCGAAUCGGAAGGGAAGGGAAGGGGAAAGUAUUAUGUUACGCCGUUCGGAUCUGCACUUCC", "log2 enrichment": -0.0214}
{"Sequence": "UGGCCCUGGUGGCAUGCGGGGAGGAAGAGGUGGCCUCAUGGAUCGUGGUGGUCCCGGUGGAAUGUUCAGAGGUGGCCGUGGUGGAGCCAG", "log2 enrichment": -0.242}
{"Sequence": "ACCAUACUUGACAACUUCUGAUUGAAUGCCCAUGCCCAAUGCCAACAUCCACGAACGCCAAUGACCAAUGCAGUACAAUGCCAGUGUUUC", "log2 enrichment": 1.08}
{"Sequence": "GUCCUGUGCUACACAUCGUAUGUACCGAAUCGGUUUUUUUGGAAAAAAAGGUUUUUGGAAAGUAUUAUGUUACGCCGUUCGGAUCUGCAC", "log2 enrichment": -3.26}
{"Sequence": "UCCUGUGCUACACAUCGUAUGUACCGAAUCGGAAAAAAAGGAAAAAAAGGAAAAAAAGGAAAGUAUUAUGUUACGCCGUUCGGAUCUGCA", "log2 enrichment": -0.592}
{"data": "Block 3", "target": "Interferon regulatory factor 3, full length, phosphomimetic (IRF3, Homo sapiens, UniProt Q14653, residues 1-427, S386D/S396D/S398D/S402D/T404D/S405D)", "technique": "protein-binding microarray", "form": "double-stranded DNA, one strand shown", "medium": "in vitro", "tested at": "2540 nM top", "setting": "60-bp whole probe", "together with": "salmon DNA 0.4 mg/ml", "relative to": "random background probes", "direction": "higher = stronger binding", "all sequences stand within": "GCCTAGCAC … GTCTTGATTCGCTTGACGCTGCTG", "Residues (chain)": "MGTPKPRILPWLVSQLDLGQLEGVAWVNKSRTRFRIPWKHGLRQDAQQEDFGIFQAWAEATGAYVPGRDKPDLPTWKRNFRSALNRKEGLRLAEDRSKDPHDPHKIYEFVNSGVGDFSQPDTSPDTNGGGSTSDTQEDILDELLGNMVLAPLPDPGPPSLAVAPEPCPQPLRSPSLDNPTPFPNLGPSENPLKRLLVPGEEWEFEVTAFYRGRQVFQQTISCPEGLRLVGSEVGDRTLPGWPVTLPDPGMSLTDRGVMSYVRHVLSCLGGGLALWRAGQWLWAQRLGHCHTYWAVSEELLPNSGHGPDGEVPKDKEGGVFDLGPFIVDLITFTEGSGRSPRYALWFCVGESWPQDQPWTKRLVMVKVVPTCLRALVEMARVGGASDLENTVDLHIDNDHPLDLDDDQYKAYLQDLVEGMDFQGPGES"}
{"Sequence": "GACGATTTCGGGTTTCGAGAGGTGCTA", "fitted relative affinity [z-score]": 2.67}
{"Sequence": "GACGGTTTCAACACTGGGGACGTGCTA", "fitted relative affinity [z-score]": 1.33}
{"Sequence": "TTAGATTTCGGGTTTCGATTAGTGCTA", "fitted relative affinity [z-score]": 3.28}
{"Sequence": "CTTTCACCTCTCGGCCTGATGTGCTAG", "fitted relative affinity [z-score]": 3.34}
{"Sequence": "GACGGTTTCGGGACTGGGGATGTGCTA", "fitted relative affinity [z-score]": 4.73}
{"Sequence": "TTAGCTTTCGGTTCCGGTTAGTGCTAG", "fitted relative affinity [z-score]": 7.12}
{"Sequence": "GTCGATCTCAGTATCGAGACGTGCTAG", "fitted relative affinity [z-score]": 1.69}
{"Sequence": "TTAGGTCTCCTTCTCCTTGAGTGCTAG", "fitted relative affinity [z-score]": 4.24}
{"Sequence": "TTAGATTTCGGGTATCGATTCGTGCTA", "fitted relative affinity [z-score]": 1.88}
{"Sequence": "GACGGTATCGGTATCGGAACGTGCTAG", "fitted relative affinity [z-score]": 5.78}
{"Sequence": "AGATATTCAGGTATATAAAGGTGCTAG", "fitted relative affinity [z-score]": 0.298}
{"Sequence": "TCACTCGTGTTTTTCTCACTGTGCTAG", "fitted relative affinity [z-score]": 0.0438}
{"Sequence": "TCATGCTTGTGTCTGGGACTGTGCTAG", "fitted relative affinity [z-score]": -0.605}
{"Sequence": "TTAGTTATCCTTCTCCTTTAGTGCTAG", "fitted relative affinity [z-score]": 5.21}
{"Sequence": "TTAGGACTGCTTTTCCTATAGTGCTAG", "fitted relative affinity [z-score]": 0.474}
{"Sequence": "TTTTTTTTTTACTTCGGGTGGTGCTAG", "fitted relative affinity [z-score]": 1.98}
{"data": "Other studies, line by line"}
{"Substance": "PhoQ, residues 284 288 289 292 302 303 ASHLAV", "target": "PhoP, residues 12 14 15 18 19 LHSVQ (Escherichia coli, UniProt P23836)", "test": "Sort-seq, refers to: YFP reporter", "test system": "E. coli", "conditions": "PhoQ-PhoP variant library, together with: 10 µM Mg2+", "scale": "relative to: high Mg2+ state, higher = stronger signaling", "quantity": "fold induction", "result": 3.01}
{"Substance": "PPVKRRLDLETDH", "target": "human cyclin D3", "test": "cyclin docking binding, deep mutational scanning", "test system": "peptide, yeast cyclin D3-Cln2 system", "scale": "direction not given", "quantity": "Cln2-subtracted enrichment score", "result": 0.000921}
{"note": "Some of these lines once more (block 2):"}
{"Sequence": "CUCAAGUCCUGUGCUACACAUCGUAUGUACCGAAUCGGAAGGGAAGGGAAGGGGAAAGUAUUAUGUUACGCCGUUCGGAUCUGCACUUCC", "log2 enrichment": -0.0214}
{"Sequence": "ACCAUACUUGACAACUUCUGAUUGAAUGCCCAUGCCCAAUGCCAACAUCCACGAACGCCAAUGACCAAUGCAGUACAAUGCCAGUGUUUC", "log2 enrichment": 1.08}
{"Sequence": "AGUCCUGUGCUACACAUCGUAUGUACCGAAUCGGGGCCCCGGGGCCCCGGCCCCGGGGAAAGUAUUAUGUUACGCCGUUCGGAUCUGCAC", "log2 enrichment": -2.38}
{"Sequence": "GUCCUGUGCUACACAUCGUAUGUACCGAAUCGGUUUUUUUGGAAAAAAAGGUUUUUGGAAAGUAUUAUGUUACGCCGUUCGGAUCUGCAC", "log2 enrichment": -3.26}
{"Sequence": "CCUGUGCUACACAUCGUAUGUACCGAAUCGGGUUUUUUGGGGUUUUUUGGGUUUUUUGGGAAAGUAUUAUGUUACGCCGUUCGGAUCUGC", "log2 enrichment": -0.893}
{"Sequence": "CCCAUGCAGGUGGGCAUCUUUGGGAAGUGGGGCAAGGGGGGGAUAGGGAGGGGGGUAACACUUUGGGAACAGGUGGUCCCAGGUCGUUUC", "log2 enrichment": 1.13}
{"Sequence": "UGGCCCUGGUGGCAUGCGGGGAGGAAGAGGUGGCCUCAUGGAUCGUGGUGGUCCCGGUGGAAUGUUCAGAGGUGGCCGUGGUGGAGCCAG", "log2 enrichment": -0.242}
